Experimental data pooled from the literature.
Protocols differ between the studies behind these lines. “And” joins repeats or separate records; there may be more than shown. Numbers after ± are the reported error.
TOP2A: DNA topoisomerase 2-alpha (TOP2A, Homo sapiens, UniProt P11388)
Sequence of UniProt P11388 (whole entry, looked up): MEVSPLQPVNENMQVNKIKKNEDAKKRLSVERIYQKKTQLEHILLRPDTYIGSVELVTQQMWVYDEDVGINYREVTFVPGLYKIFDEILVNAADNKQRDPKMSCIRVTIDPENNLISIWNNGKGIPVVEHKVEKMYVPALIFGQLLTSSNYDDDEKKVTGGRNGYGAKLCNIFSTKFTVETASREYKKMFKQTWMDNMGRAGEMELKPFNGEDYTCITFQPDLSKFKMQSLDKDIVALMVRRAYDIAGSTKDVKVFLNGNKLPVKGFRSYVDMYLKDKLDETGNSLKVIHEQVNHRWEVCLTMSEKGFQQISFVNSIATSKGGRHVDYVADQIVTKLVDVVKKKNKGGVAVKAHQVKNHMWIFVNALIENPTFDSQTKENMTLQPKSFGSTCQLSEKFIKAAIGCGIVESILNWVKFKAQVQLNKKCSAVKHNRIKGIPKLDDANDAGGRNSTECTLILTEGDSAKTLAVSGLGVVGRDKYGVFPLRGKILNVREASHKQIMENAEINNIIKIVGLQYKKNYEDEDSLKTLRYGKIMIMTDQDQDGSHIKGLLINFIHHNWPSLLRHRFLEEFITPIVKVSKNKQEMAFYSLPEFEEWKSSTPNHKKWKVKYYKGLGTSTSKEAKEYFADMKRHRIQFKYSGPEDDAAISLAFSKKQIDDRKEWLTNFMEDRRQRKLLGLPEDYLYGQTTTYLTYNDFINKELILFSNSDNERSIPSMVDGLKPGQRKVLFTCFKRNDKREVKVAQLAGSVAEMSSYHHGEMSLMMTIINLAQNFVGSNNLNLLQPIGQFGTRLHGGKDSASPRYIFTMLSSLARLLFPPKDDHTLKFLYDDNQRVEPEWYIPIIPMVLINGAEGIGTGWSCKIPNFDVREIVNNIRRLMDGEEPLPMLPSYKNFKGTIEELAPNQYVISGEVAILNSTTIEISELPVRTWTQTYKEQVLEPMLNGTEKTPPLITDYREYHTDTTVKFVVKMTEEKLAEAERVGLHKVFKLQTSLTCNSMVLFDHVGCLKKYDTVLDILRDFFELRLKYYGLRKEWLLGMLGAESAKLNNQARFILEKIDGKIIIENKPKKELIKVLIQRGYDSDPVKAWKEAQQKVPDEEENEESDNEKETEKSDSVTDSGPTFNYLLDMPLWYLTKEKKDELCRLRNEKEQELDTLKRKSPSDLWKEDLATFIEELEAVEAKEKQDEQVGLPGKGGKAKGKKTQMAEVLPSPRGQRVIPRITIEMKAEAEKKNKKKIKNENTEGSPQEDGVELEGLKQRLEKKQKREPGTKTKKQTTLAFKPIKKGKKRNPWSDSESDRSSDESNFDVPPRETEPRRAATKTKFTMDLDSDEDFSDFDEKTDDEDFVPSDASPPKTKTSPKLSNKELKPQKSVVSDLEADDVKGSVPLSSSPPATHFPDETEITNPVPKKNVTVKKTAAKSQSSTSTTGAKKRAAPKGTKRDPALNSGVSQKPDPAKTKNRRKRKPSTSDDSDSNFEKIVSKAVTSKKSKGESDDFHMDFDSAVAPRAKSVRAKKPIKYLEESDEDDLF
Cereblon/Ikaros: Cereblon/Ikaros (Homo sapiens, UniProt Q13422+Q96SW2)
Sequence of UniProt Q13422 (whole entry, looked up): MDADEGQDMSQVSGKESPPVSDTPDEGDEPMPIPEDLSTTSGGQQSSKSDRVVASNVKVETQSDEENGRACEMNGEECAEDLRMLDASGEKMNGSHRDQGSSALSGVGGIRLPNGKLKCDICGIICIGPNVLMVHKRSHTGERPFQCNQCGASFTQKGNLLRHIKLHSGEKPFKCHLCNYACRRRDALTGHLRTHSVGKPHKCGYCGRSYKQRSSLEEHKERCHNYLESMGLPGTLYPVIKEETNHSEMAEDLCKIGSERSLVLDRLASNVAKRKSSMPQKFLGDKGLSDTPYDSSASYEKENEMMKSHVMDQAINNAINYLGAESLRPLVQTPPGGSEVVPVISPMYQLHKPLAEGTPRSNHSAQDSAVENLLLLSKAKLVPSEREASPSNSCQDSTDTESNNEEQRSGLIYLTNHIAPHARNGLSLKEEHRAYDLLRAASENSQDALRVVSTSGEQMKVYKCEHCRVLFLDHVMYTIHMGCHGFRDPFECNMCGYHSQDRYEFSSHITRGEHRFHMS
Pteridine reductase 1: Pteridine reductase 1 (Leishmania major, UniProt Q01782)
PKN1: Serine/threonine-protein kinase N1 (PKN1, Homo sapiens, UniProt Q16512)
Sequence of UniProt Q16512 (whole entry, looked up): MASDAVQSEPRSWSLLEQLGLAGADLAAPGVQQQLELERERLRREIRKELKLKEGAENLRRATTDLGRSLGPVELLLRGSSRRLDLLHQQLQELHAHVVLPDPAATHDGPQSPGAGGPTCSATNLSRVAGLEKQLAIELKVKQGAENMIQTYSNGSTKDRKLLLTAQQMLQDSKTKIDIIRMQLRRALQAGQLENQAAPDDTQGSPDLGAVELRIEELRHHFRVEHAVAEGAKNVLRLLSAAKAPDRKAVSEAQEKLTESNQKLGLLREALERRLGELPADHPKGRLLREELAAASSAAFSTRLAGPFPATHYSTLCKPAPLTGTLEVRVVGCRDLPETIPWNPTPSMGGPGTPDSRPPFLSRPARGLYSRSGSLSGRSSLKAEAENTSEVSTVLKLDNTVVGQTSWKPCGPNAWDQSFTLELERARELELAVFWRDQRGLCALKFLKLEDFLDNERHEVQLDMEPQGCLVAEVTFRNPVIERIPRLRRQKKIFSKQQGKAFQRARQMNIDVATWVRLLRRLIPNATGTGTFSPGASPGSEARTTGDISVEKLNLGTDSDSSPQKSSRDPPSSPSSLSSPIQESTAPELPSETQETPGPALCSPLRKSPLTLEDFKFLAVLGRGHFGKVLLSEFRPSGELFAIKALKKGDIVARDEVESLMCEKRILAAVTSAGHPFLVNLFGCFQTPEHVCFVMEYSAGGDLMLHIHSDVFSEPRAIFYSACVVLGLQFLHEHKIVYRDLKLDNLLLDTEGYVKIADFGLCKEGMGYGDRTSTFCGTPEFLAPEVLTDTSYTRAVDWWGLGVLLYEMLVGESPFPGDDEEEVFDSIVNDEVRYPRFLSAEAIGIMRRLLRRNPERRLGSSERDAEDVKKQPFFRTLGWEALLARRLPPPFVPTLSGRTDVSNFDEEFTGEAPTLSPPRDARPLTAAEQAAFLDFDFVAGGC
BEST2: Bestrophin-2a (BEST2, Homo sapiens, UniProt Q8NFU1)
Sequence of UniProt Q8NFU1 (whole entry, looked up): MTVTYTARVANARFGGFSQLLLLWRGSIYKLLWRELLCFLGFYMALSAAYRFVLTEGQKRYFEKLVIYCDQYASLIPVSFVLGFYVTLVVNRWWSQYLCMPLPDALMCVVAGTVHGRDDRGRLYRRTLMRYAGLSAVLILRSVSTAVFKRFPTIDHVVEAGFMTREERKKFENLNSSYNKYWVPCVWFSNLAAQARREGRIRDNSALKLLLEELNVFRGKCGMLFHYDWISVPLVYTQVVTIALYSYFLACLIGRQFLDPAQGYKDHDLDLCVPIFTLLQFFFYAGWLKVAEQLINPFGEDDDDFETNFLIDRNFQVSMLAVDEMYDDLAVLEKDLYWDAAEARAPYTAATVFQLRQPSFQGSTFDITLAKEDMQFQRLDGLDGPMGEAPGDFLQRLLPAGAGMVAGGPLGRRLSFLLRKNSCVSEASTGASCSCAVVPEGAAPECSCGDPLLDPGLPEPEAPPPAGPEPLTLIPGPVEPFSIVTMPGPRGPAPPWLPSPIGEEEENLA
Sequence of UniProt Q64663 (whole entry, unmodified, looked up): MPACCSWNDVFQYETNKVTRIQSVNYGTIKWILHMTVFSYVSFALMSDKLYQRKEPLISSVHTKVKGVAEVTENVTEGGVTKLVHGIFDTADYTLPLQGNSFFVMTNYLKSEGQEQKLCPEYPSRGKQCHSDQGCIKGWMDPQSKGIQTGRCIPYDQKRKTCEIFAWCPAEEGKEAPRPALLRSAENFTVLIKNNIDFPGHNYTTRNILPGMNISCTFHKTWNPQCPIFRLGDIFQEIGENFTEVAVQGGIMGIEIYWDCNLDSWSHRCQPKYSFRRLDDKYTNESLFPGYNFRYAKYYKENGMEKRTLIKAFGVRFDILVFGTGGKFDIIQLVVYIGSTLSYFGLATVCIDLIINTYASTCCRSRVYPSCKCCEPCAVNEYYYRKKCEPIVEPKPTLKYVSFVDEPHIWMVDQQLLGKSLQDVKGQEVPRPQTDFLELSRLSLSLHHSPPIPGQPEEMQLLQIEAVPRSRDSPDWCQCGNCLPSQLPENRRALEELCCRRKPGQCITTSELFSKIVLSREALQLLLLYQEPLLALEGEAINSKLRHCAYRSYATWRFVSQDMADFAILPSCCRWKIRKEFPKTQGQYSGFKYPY
Sequence of UniProt Q9EP73 (whole entry, looked up): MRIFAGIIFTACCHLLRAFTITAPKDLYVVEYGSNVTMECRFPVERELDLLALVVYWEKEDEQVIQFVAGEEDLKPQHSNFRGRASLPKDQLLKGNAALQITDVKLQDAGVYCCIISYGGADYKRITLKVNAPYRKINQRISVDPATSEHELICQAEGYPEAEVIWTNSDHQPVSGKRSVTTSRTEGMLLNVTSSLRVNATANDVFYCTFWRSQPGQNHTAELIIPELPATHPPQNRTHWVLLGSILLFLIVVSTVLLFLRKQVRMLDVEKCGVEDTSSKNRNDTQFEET
Sequence of UniProt P10276 (whole entry, looked up): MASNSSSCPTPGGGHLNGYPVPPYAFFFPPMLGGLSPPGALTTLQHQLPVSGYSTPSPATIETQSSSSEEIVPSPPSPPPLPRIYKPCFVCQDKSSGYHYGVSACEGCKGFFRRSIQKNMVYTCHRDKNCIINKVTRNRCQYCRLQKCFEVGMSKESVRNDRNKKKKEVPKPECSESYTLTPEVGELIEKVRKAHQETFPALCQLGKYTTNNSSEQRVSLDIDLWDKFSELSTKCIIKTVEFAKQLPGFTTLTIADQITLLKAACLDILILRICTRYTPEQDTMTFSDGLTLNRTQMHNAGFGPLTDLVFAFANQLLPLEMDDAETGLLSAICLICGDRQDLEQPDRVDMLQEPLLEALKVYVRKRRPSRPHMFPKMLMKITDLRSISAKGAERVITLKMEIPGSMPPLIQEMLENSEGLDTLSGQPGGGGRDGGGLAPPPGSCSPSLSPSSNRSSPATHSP
Sequence of UniProt P02754 (whole entry, looked up): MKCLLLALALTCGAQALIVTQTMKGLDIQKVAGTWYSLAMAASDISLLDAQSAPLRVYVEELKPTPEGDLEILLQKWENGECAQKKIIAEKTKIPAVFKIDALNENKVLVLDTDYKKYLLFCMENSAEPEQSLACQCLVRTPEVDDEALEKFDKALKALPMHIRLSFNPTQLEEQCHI

Compound | target | assay | test system | conditions | how to read | measurement | value
Cc1c(COc2ccc(CN3CCCCC3C(=O)O)cc2Br)cccc1-c1ccccc1 (centres unmarked) | Cd274 (Mus musculus, UniProt Q9EP73) | western blot | mouse B16-F10 tumour, tumour | dose not given, unit not given | baseline: control | protein level | 1.21 and 0.699
Nc1ncnc2c1ncn2[C@@H]1O[C@H](COP(=O)(O)CP(=O)(O)OP(=O)(O)O)[C@@H](O)[C@H]1O | P2X purinoceptor 1 (P2RX1, Homo sapiens, UniProt P51575, K136A) | saturation binding | HEK293 | 130 nM | – | specific binding | 3680 CCPM and 3440 CCPM
[O-][S+]1CCCCS1 (centres unmarked) | SOD1 (Homo sapiens, UniProt P00441, G94A) | LC-MS | human whole blood | 5000 µM, 1 h, 37 °C | – | SOD1 monomer fraction | 8.28%
Nc1ncnc2c1ncn2[C@@H]1O[C@H](COP(=O)(O)OP(=O)(O)OP(=O)(O)O)[C@@H](O)[C@H]1O | P2X purinoceptor 7 (P2rx7, Rattus norvegicus, UniProt Q64663, R125A) | ion current, agonist, two-electrode voltage clamp | Xenopus laevis oocytes | 166.7 µM | baseline: highest concentration response | normalized current | 0.857 and 0.746 and 0.708
Nc1ncnc2c1ncn2[C@@H]1O[C@H](CO[P@](=O)(O)O[P@](=O)(O)O[P@@](=O)(O)S)[C@@H](O)[C@H]1O | GUK1 (Homo sapiens, UniProt Q16774) | binding, isothermal titration calorimetry | – | molar ratio 2.17, fitted curve | – | ΔH | -0.429 kcal/mol
C=CC(=O)c1ccc2ccccc2c1 | TGM2 (Homo sapiens, UniProt P21980) | enzyme activity, inhibitor | – | concentration not given, reversibility, without calcium | – | inhibition after dialysis | > 90%
CC(C)(C)OC(=O)N1CCc2cc(CCOCCCCCc3ccccc3)ccc21 | ATP2A2 (Sus scrofa, UniProt P11607) | ATPase Vmax increase, activator | pig microsomes | 0.1 to 50 µM | baseline: vehicle | Emax | ~25%
O=c1nc(SCc2cc(F)cc(C(F)(F)F)c2)nc(SCc2ccc3ccccc3n2)[nH]1 | TOP2A | decatenation | – | 125 µM, replicate 1 | – | decatenated DNA | 0%
CCN1CCC[C@H]1CNC(=O)c1c(O)c(Cl)cc(Cl)c1OC | GPR17 (Homo sapiens, UniProt Q13304) | β-arrestin recruitment, TANGO luminescence | – | concentration not given | baseline: basal luminescence | log2 fold change | 0.03
CC(=O)N[C@H](C(=O)N1C[C@H](O)C[C@H]1C(=O)NCc1ccc(-c2scnc2C)cc1)C(C)(C)SCCCCCCNC(=O)C[C@@H]1N=C(c2ccc(Cl)cc2)c2c(sc(C)c2C)-n2c(C)nnc21 | BRD2/VHL, BD1; with VCB (Homo sapiens, UniProt P25440+P40337) | ternary complex binding, ITC | – | 25 °C, unit not given, added: VHL-ElonginB-ElonginC, PROTAC:Brd2^BD1 | baseline: binary binding to VHL-ElonginB-ElonginC, positive = cooperative | ΔpKd ternary minus binary | 0.1 ± 0.2
CCC(C)(NCCc1ccc(OC)c(Cl)c1)c1cccc(NC2=CC(=O)N(C3CCC(=O)NC3=O)C2=O)c1 (centres unmarked) | Cereblon/Ikaros | protein degradation, degrader, HiBiT luminescence | Jurkat | – | – | Dmax | 76%
CCOC(=O)C1CCN(C(=O)c2ccc(N(CC)Cc3cnc4nc(N)nc(N)c4n3)cc2)CC1 | Pteridine reductase 1 | – | – | hDHFR weight 10 | baseline: LmPTR1, LmDHFR over hDHFR, 1.0 selective, 0.0 non-selective | partition index | 0.95
C=C1C(=O)O[C@@H]2C[C@@]3(C)CCCC(=C)[C@@H]3C[C@H]12 | RARA (Homo sapiens, UniProt P10276) | reporter gene, Gal4 hybrid reporter | – | 10 µM | baseline: vehicle | activation | 0.89 fold
COc1ccc(C(=O)/C=C/c2cccc(-c3cccc(-c4ccc(CNCCN)c(OC)n4)c3C)c2)cc1 | CD274 (Homo sapiens, UniProt Q9NZQ7) | degrader, western blot | HL-60 | 1 µM | – | degradation | < 5%
CC[C@@H]1[C@H](F)C(=O)N[C@@H]1COc1nccc2cc(C(N)=O)c(OC)cc12 | PKN1 | ATP-site probe binding, ActivX profiling | THP-1 cell lysate | 0.01 mM, Lys1 site | – | inhibition | 8.7%
CC(C)c1cccc2c(-c3ccc(Cl)cc3)cc(-c3ccc(-c4ccc(C(=O)O)cc4)[nH]3)nc12 | RARB (Homo sapiens, UniProt P10826) | reporter gene, antagonist | – | – | baseline: IC50 RARα over IC50 RARB | selectivity ratio | 16 fold
CC[C@@H](C)[C@@H](NC(=O)[C@@H](Cc1ccc(O)cc1)NC(=O)[C@H]1CCCN1C(=O)[C@@H](CCCNC(=N)N)NC(=O)[C@H](N)Cc1c[nH]cn1)C(=O)N[C@H](C)C(=O)N[C@H](Cc1c[nH]cn1)C(=O)N[C@H](CCCNC(=N)N)C(=O)N[C@@H](C(=O)N[C@H](Cc1ccc(O)cc1)C(=O)N[C@H](CO)C(=O)N[C@H](Cc1ccccc1)C(N)=O)C(C)C | Transferrin receptor protein 1 (Tfrc, Mus musculus, UniProt Q62351) | flow cytometry | DC2.4 | 24 h, pH 6, replicate 3, unit not given | baseline: 0 h | surface TFRC expression | 0.938
O=c1nc(SCc2cc(F)cc(C(F)(F)F)c2)nc(SCc2csc3ccc(Cl)cc23)[nH]1 | TOP2A | DNA cleavage | – | 3.9 µM, replicate 1 | – | linear DNA | 0%
COCCC(=O)N1CCC(Oc2ccccc2)C1 (centres unmarked) | DNA (cytosine-5)-methyltransferase 3A, PWWP domain (DNMT3A, Homo sapiens, UniProt Q9Y6K1) | binding, affinity selection mass spectrometry | – | – | baseline: other proteins in batch | log fold enrichment | -0.143
COC(=O)CNC(=O)C(=O)OC | KDM5A PHD3 domain, human | histone H3 binding, GST pull-down | MDA-MB-231 | concentration not given, 12 h | – | binding | decreased
Cc1nc(CSc2nc(SCc3ccc(C(C)C)cc3)nc(=O)[nH]2)cs1 | TOP2A | decatenation | – | 15.6 µM, replicate 2 | – | decatenated DNA | 44.7%
CN(C)C(=O)C(CCN1CCC(O)(c2ccc(Cl)cc2)CC1)(c1ccccc1)c1ccccc1 | Calcium-activated potassium channel subunit alpha-1, with LRRC26 γ1 subunit (KCNMA1, Homo sapiens, UniProt Q12791) | ion current, inside-out patch, mean of individual fits | BKα/γ1 channel | 3 µM, added: nominally 0 Ca2+ | – | V1/2 | -0.87 ± 4 mV

Compound | target | assay | test system | conditions | how to read | measurement | value
c1coc(-c2n[nH]cc2-c2ccnc3ccccc23)c1 | Cell cycle protein kinase DBF2 (DBF2, Candida albicans, UniProt Q59KM8) | kinase binding, MIB/MS competition | Candida albicans lysate | 10 µM | baseline: DMSO, negative = stronger binding | log2 fold change | 0.17
O=C(O)C1=CCNCC1 | BEST2 | whole-cell patch clamp | HEK293 transiently expressing channel | concentration not given, membrane potential 40 mV | – | current density | 104 pA/pF and 163 pA/pF and 19.8 pA/pF and 81.8 pA/pF and 80 pA/pF
Cc1nc(CSc2nc(SCc3cc(F)cc(C(F)(F)F)c3)nc(=O)[nH]2)cs1 | TOP2A | decatenation | – | 125 µM, replicate 2 | – | decatenated DNA | 7%
Nc1ccc(C(=O)O)cc1 | BEST2 | whole-cell patch clamp | HEK293 transiently expressing channel | concentration not given, membrane potential -20 mV | – | current density | -65.5 pA/pF and -47.1 pA/pF and -33.6 pA/pF and -16.8 pA/pF and -74.5 pA/pF and -59.1 pA/pF
CCC[C@H](N)C(=O)O | Uncharacterized protein (Pelagibacter ubique, UniProt Q4FM26) | differential scanning fluorimetry | Candidatus Pelagibacter ubique | in-house screen | – | thermal shift | 6.59 °C
C[C@@H]1C[C@H](Nc2ccccc2)c2cc(F)ccc2N1C(=O)c1cnc(Cl)nc1 | Ecdysone receptor (Aedes albopictus, UniProt Q9U3Y4) | ligand binding, inhibitor | intact cells | added: [3H]ponasterone A | direction not given | pIC50 Z-score | -1.8
O=c1nc(SCc2cc(F)cc(C(F)(F)F)c2)nc(SCc2cccc(C(F)(F)F)c2)[nH]1 | TOP2A | decatenation | – | 7.8 µM, replicate 1 | – | decatenated DNA | 97.9%
Nc1nc2c(ncn2[C@@H]2O[C@@H]3COP(=O)(O)O[C@H]3[C@H]2O)c(=S)[nH]1 | anti-cGMP antibody | antibody binding, competitive cGMP EIA | – | concentration not given, acetylated samples | baseline: EC50 cGMP over EC50 cpd, higher = stronger binding | relative binding affinity | 0.0432
O=C(COP(=O)(O)O)[C@@H](O)[C@H](O)[C@H](O)COP(=O)(O)O | HMGCS1 (Homo sapiens, UniProt Q01581) | thermal proteome profiling | HepG2 cell lysate | concentration not given, 57 over 37 °C, mean | baseline: compound over control | thermal stability ratio | 0.604
CCC(C)(NCCc1ccc(OC)cc1)c1cccc(NC2=CC(=O)N(C3CCC(=O)NC3=O)C2=O)c1 (centres unmarked) | Cereblon/Ikaros | protein degradation, degrader, HiBiT luminescence | Jurkat | – | – | Dmax | 74%
CC(C)OCCn1c(=S)[nH]c(=O)c2[nH]ccc21 | Myeloperoxidase (MPO, Homo sapiens, UniProt P05164) | H2O2 consumption, inhibitor, H2O2 electrode | – | 10 µM, 0.3 s | – | H2O2 concentration | -0.708 µM
O=c1ccc2nc3ccc(O[C@@H]4O[C@H](CO)[C@@H](O)[C@H](O)[C@H]4O)cc3oc-2c1 | GBA1 (Homo sapiens, UniProt P04062, R534H) | substrate | – | – | – | Vmax/Km | 1.4 pmol/min/µM
O=c1nc(SCc2cc(F)cc(C(F)(F)F)c2)nc(SCc2ccc3nc(Cl)ccc3c2)[nH]1 | TOP2A | decatenation | – | 15.6 µM | – | mean decatenated DNA | 25.8%
Cc1ccccc1C1CC(=O)c2c(C)nc(N)nc2C1 (centres unmarked) | DDB1 (Homo sapiens, UniProt Q16531) | binding, affinity selection mass spectrometry | – | – | baseline: other proteins in batch | log fold enrichment | -0.0483
COC(=O)C1CCN(C(=O)c2ccc(N(Cc3ccccc3)Cc3cnc4nc(N)nc(N)c4n3)cc2)CC1 | Pteridine reductase 1 | – | – | hDHFR weight 10 | baseline: LmPTR1, LmDHFR over hDHFR, 1.0 selective, 0.0 non-selective | partition index | 1
CC1=C[C@H](O)CC(C)(C)[C@H]1/C=C/C(C)=C/C=C/C(C)=C/C=C/C=C(C)/C=C/C=C(C)/C=C/C1=C(C)C[C@@H](O)CC1(C)C | Beta-lactoglobulin (LGB, Bos taurus, UniProt P02754) | fluorescence quenching | – | concentration not given, 308 K | – | number of binding sites | 0.78
CC1CCCN(C(=O)c2cc3ncccn3n2)C1 (centres unmarked) | Histone-lysine N-methyltransferase SETDB1, triple tudor domain (SETDB1, Homo sapiens, UniProt Q15047) | binding, affinity selection mass spectrometry | – | – | baseline: other proteins in batch | log fold enrichment | -0.225
C=CC(=O)N1CCC[C@@H](n2nc(-c3ccc(Oc4ccccc4)cc3)c3c(N)ncnc32)C1 | PTK6 (Homo sapiens, UniProt Q13882) | – | – | 0.1 µM | – | remaining activity | 127%
O=C(NC1CCC1)c1ccc2nc(-c3cccc(NS(=O)(=O)NCCN4CCCCC4)c3)cn2c1 | LIM domain kinase 2 (LIMK2, Homo sapiens, UniProt P53671) | enzyme activity | – | 10 µM | – | remaining activity | 100%
Cc1c[nH]c2nc(Nc3ccc(N4CCN(C)CC4)c(F)c3)nc(-c3cccc(CC#N)c3)c12 | PKN1 | inhibitor | – | – | – | Hill slope | -0.779
Cc1nc(CSc2nc(SCc3ccc(C(F)(F)F)cc3)nc(=O)[nH]2)cs1 | TOP2A | decatenation | – | 125 µM, replicate 2 | – | decatenated DNA | 27.8%
Oc1ccc(/C=C/c2cc(O)cc(O)c2)cc1 | O-methyltransferase (Sorghum bicolor, UniProt A0A1B6PFV1) | ITC | – | concentration not given, added: ADN+ | – | binding stoichiometry | 0.7 ± 0.005

Some of these lines once more:
Compound | target | assay | test system | conditions | how to read | measurement | value
CC[C@@H](C)[C@@H](NC(=O)[C@@H](Cc1ccc(O)cc1)NC(=O)[C@H]1CCCN1C(=O)[C@@H](CCCNC(=N)N)NC(=O)[C@H](N)Cc1c[nH]cn1)C(=O)N[C@H](C)C(=O)N[C@H](Cc1c[nH]cn1)C(=O)N[C@H](CCCNC(=N)N)C(=O)N[C@@H](C(=O)N[C@H](Cc1ccc(O)cc1)C(=O)N[C@H](CO)C(=O)N[C@H](Cc1ccccc1)C(N)=O)C(C)C | Transferrin receptor protein 1 (Tfrc, Mus musculus, UniProt Q62351) | flow cytometry | DC2.4 | 24 h, pH 6, replicate 3, unit not given | baseline: 0 h | surface TFRC expression | 0.938
O=c1nc(SCc2cc(F)cc(C(F)(F)F)c2)nc(SCc2csc3ccc(Cl)cc23)[nH]1 | TOP2A | DNA cleavage | – | 3.9 µM, replicate 1 | – | linear DNA | 0%
COCCC(=O)N1CCC(Oc2ccccc2)C1 (centres unmarked) | DNA (cytosine-5)-methyltransferase 3A, PWWP domain (DNMT3A, Homo sapiens, UniProt Q9Y6K1) | binding, affinity selection mass spectrometry | – | – | baseline: other proteins in batch | log fold enrichment | -0.143
COC(=O)CNC(=O)C(=O)OC | KDM5A PHD3 domain, human | histone H3 binding, GST pull-down | MDA-MB-231 | concentration not given, 12 h | – | binding | decreased
Cc1nc(CSc2nc(SCc3ccc(C(C)C)cc3)nc(=O)[nH]2)cs1 | TOP2A | decatenation | – | 15.6 µM, replicate 2 | – | decatenated DNA | 44.7%
CN(C)C(=O)C(CCN1CCC(O)(c2ccc(Cl)cc2)CC1)(c1ccccc1)c1ccccc1 | Calcium-activated potassium channel subunit alpha-1, with LRRC26 γ1 subunit (KCNMA1, Homo sapiens, UniProt Q12791) | ion current, inside-out patch, mean of individual fits | BKα/γ1 channel | 3 µM, added: nominally 0 Ca2+ | – | V1/2 | -0.87 ± 4 mV
c1coc(-c2n[nH]cc2-c2ccnc3ccccc23)c1 | Cell cycle protein kinase DBF2 (DBF2, Candida albicans, UniProt Q59KM8) | kinase binding, MIB/MS competition | Candida albicans lysate | 10 µM | baseline: DMSO, negative = stronger binding | log2 fold change | 0.17
